Measured values from different studies.
Each line is one published result; not all experiments were run side by side. “And” joins repeats or separate records; there may be more than shown. ± gives the spread as reported.

| Compound | tested on | assay | test system | conditions | how to read | endpoint | result |
| --- | --- | --- | --- | --- | --- | --- | --- |
| CC(C)c1cnc(-c2cc(Cl)ccc2F)cc1Nc1ccncc1C(=O)NC(CO)CO | – | – | female C57BL/6 mice, plasma | oral, 10 mg/kg twice daily, day 1, MC-38 tumour-bearing | – | Tmax | 12 h |
| O=C(Nc1cnccc1-c1ccc([18F])cc1)c1ccnc(NC(=O)C2CC2)c1 | – | ex vivo gamma counting | GSK-3β transgenic mice, late-stage, cerebellum | intravenous, 120 min, mean, P-gp inhibitor pretreatment, together with: tariquidar 15 mg/kg iv | – | SUV | 0.21 |
| Cc1nc(N)nc2c1C(=O)N[C@@H](c1ccc(F)cc1-c1cccc(O[11CH3])n1)C2 | – | ex vivo biodistribution | mouse, U87 subcutaneous xenograft, tumour | 60 min, vehicle pretreatment baseline | – | SUV | 2 ± 0.1 |
| Cc1ncsc1-c1ccc(C(C)NC(=O)C2CC(O)CN2C(=O)C(NC(=O)CCCCCCCCCCN2CCCC(Nc3ncc(Cl)c(Nc4ccccc4S(=O)(=O)C(C)C)n3)C2)C(C)(C)C)cc1 (centres unmarked) | 22Rv1 | RNA-seq, measured: STOML1 mRNA | – | concentration not given | baseline: DMSO | log2 fold change | -1.31 |
| CC(=O)N([O-])CCCCCNC(=O)CCC(=O)N([O-])CCCCCNC(=O)CCC(=O)N([O-])CCCCCN.[89Zr+4] | – | – | mouse, liver | 1 h | – | tracer uptake | 1.14 %ID/g |
| Cc1ccc(OCC(=O)N(Cc2cccs2)c2ccn[nH]2)cc1 | – | ex vivo plasma stability | human plasma | 750 ng/mL, 24 h, 37 °C | – | remaining compound | 90% |
| CN1CCC[C@]1(C)/C=C/S(=O)(=O)NC(=O)Nc1c2c(cc3c1CCC3)CC=C2 | – | – | human, plasma | oral, 100 mg twice daily of parent drug, day 14, metabolite of dosed drug | – | AUC(0-24) | 932 µg·h/mL |
| Cc1cccc(-c2ccc3nc(NC(=O)C4CCCCC4)nn3c2)c1 | – | – | human liver microsomes | 40 min | – | metabolic turnover | 100% |
| CCCC[C@H](NC(=O)CNC(=O)CNC(=O)[C@H](CCCCNC(=O)[C@H](CC(=O)O)NC(=O)C(C)c1ccc(CC(C)C)cc1)NC(=O)CN1CCN(CC(=O)O)CCN(CC(=O)O)CCN(CC(=O)O)CC1)C(=O)N[C@H]1CC(=O)NCCCC[C@@H](C(N)=O)NC(=O)[C@H](Cc2c[nH]c3ccccc23)NC(=O)[C@H](CCCNC(=N)N)NC(=O)[C@@H](Cc2ccccc2)NC(=O)[C@H](Cc2c[nH]cn2)NC1=O (some centres unmarked) [lutetium-177 labelled] | – | – | C57 mice, tumour | 2 h | baseline: kidney | tumour-to-tissue ratio | 2.13 |
| C=CC(=O)Nc1cccc(Cn2ncc3cnc(Nc4cnn(CCOC)c4)nc32)c1 | CHEK2 human | binding, KINOMEscan | – | 100 nM | lower = stronger binding | percent of control | 88% |
| CN1CCC[C@]1(C)/C=C/S(=O)(=O)NC(=O)Nc1c2c(cc3c1CCC3)CCC2 | – | measured: gastrointestinal disorders | human | oral, 50 mg twice daily, 14 days, multiple ascending dose | – | subjects with adverse event | 33.3% |
| CCC1=[N+]2N=C(/C=C/C=C/c3ccccc3)C(=O)O[B-]2(c2ccccc2)Oc2cc(N(CC)CC)ccc21 (centres unmarked) | – | UV/vis decay | aqueous buffer | – | – | hydrolysis activation energy | 24.4 kcal/mol |
| O=C(O)CCCCC1(N(CC(=O)O)CC(=O)O)CN(CC(=O)O)CCN(CC(=O)O)C1 | – | pH-potentiometry, measured: logK3H | 0.15 M NaClO4 | 25 °C | – | protonation constant (log) | 4.73 |
| CN(C)C(=O)c1cccc(N2Cc3cn(Cc4cccc(C(F)(F)F)c4)nc3C2)c1 | – | metabolic stability | human, liver microsomes | – | – | half-life | 0.817 h |
| C=CC(=O)Nc1cc(Nc2nccc(-c3cn(C)c4ccccc34)n2)c(OC)cc1N(C)CCNC | – | storage stability | human plasma | 24 h, -80 °C, low QC level | – | recovery | 95.9% |
| CN(O)C(=O)CCC(=O)NCCCN(CCCCN(CCCNC(=O)CCC(=O)N(C)O)C(=O)CCC(=O)N(C)O)C(=O)CCC(=O)N(C)O.[89Zr] | – | radio-TLC | aqueous buffer | 5 d, pH 8.5, 37 °C, 89Zr-labelled complex, together with: DTPA 100-fold excess | – | intact complex | 99.9 ± 0.1% |
| C=C(NC(=O)c1csc(-c2nc3c(cc2O)-c2nc(cs2)C(=O)NC(C(C)O)C(=O)NC(=C(C)OC)c2nc(cs2)C(=O)NC2c4nc(cs4)C(=O)NC(COC(=O)c4c5c6c(cccc6n4O)COC(=O)C(OC4CC(C)(O)C(N(C)C)C(C)O4)C2OC5)c2nc-3cs2)n1)C(N)=O (centres unmarked) | – | – | cynomolgus monkey, plasma | intravenous, 1 mg/kg, single dose, infusion | – | Cmax | 13500 ng/mL |
| CN1CCC[C@]1(C)/C=C/S(=O)(=O)NC(=O)Nc1c2c(cc3c1CCC3O)CCC2 (some centres unmarked) | – | – | human, plasma | oral, 100 mg twice daily of parent drug, day 1, metabolite of dosed drug | – | AUC(0-24) | 1210 µg·h/mL |
| CCC(C(=O)Nc1ccc(C(N)=O)c(F)c1)n1cc(OC)c(-c2cc(Cl)ccc2-n2cc(C(F)(F)F)nn2)cc1=O (centres unmarked) | – | – | healthy male humans | 50 mg, IR formulation, fasted | – | treatment-emergent adverse events | 6.7% |
| COc1ccc(Nc2nc(Nc3ccc(OCCOCC[18F])cc3)ncc2Br)cc1 | – | – | ICR mice, S180 tumour | intravenous, 370 kBq, 5 min | baseline: tumour over bone | uptake ratio | 2.12 |
| O=C(NS(=O)(=O)c1cccs1)c1cc2ccccc2n1Cc1ccc(Br)c2ccccc12 | – | – | Sprague-Dawley rat, male, plasma | oral, 2 mg/kg, 2 h | – | plasma concentration | 376 ng/mL |

| Compound | tested on | assay | test system | conditions | how to read | endpoint | result |
| --- | --- | --- | --- | --- | --- | --- | --- |
| CC(C)(C)NCC(SS(=O)(=O)O)c1ccccc1 (centres unmarked) | – | – | Swiss Webster mice, Schistosoma mansoni-infected | 100 mg/kg x 4 doses from day 42 post-infection, perfusion day 56 post-infection | baseline: vehicle | body weight decrease | 4.31% |
| CCCCN1C(=O)c2cccc3c(NCCCCCCCCCCN4CCOCC4)ccc(c23)C1=O | – | – | chloroform | – | – | fluorescence lifetime | 9.8 ns |
| CC(C)CCCC(C)C1CCC2C3CC=C4CC(OC(=O)NCCOCCOCCOCCn5cc(CN(CCCNC(=O)c6ccc(C(=O)[O-])c(-c7c8ccc(=O)cc-8oc8cc(O)ccc78)c6)CCCNc6ncnc7c6ncn7C6OC(COP(=O)(O)OP(=O)(O)OP(=O)(O)OCC7OC(n8c[n+](C)c9c(O)nc(N)nc98)C(O)C7O)C(O)C6O)nn5)CCC4(C)C3CCC12C (centres unmarked) | – | fluorescence correlation spectroscopy | water | 36 °C | – | hydrodynamic radius | 2 nm |
| CC[C@H](C)[C@H](NC(=O)[C@@H](NC(=O)[C@H](CCCCN)NC(=O)[C@@H](NC(=O)[C@@H]1CCCN1[C@@H]1CN(C(=O)[C@@H](NC(=O)[C@@H](NC(=O)[C@@H](NC(=O)[C@@H](NC(=O)[C@@H](NC(=O)[C@@H](N)CCCCN)C(C)C)C(C)C)C(C)C)[C@@H](C)CC)[C@@H](C)O)CC[C@H]1NS(=O)(=O)c1ccc(C)cc1)[C@@H](C)O)C(C)C)C(=O)N[C@@H](CC(C)C)C(=O)N[C@@H](Cc1c[nH]cn1)C(N)=O | – | CD spectroscopy | 20 mM phosphate buffer | 125 µM, 37 °C | – | beta-sheet content | 32.3% |
| CN1CCC[C@]1(C)/C=C/S(=O)(=O)NC(=O)Nc1c2c(cc3c1C(O)CC3)CCC2 (some centres unmarked) | – | – | human, plasma | oral, 12.5 mg twice daily of parent drug, metabolite of dosed drug | baseline: day 14 over day 1 | AUC(0-24) accumulation ratio | 1.8 |
| CCC[C@H]1CC[C@H](c2ccc(NC(=S)NC[C@@H]3[C@@H](O)[C@@H](O)[C@H]4[C@H](O)CCCN43)cc2)CC1 | – | – | NOD-SCID mouse, serum | ip, 30 mg/kg | – | ALT | 102 ± 70.6 U/L |
| Cc1cc(-c2ccc(C(=O)[C@@H]3CCCC[C@H]3C(=O)Nc3cnn4c3C(=O)NCC4)cc2)[nH]n1 | – | – | human, urine | oral, 200 mg | baseline: dose | cumulative recovery of radioactivity | 6.8% and 4.93% and 6.73% and 5.62% and 6.33% and 4.97% |
| N#Cc1ccnc(N2C(=O)CC[C@H]2C(=O)N(c2cncc(F)c2)[C@H](C(=O)NC2CC(F)(F)C2)c2ccccc2Cl)c1 | – | – | cynomolgus monkey, plasma | oral, 10 mg/kg | – | bioavailability | 49% |
| Cc1ccc(CN2C(=O)/C(=N\c3ccc(Cl)cc3Br)c3ccccc32)cc1 | – | – | mouse, blood | 200 mg/kg | – | haemoglobin | 147 ± 4.12 g/L |
| CC(C)(O)c1ncc([S@](N)(=O)=NC(=O)Nc2c3c(cc4c2CCC4)CCC3)s1 | – | – | healthy human | oral, 100 mg single dose, capsule formulation | – | gastrointestinal adverse events | 50% |
| Cc1cc(NC(=O)C(=O)N2C[C@@H](C)CC[C@@H]2c2ccc3scnc3c2)cnc1N | – | – | cynomolgus monkey, CSF and plasma | oral, 10 mg/kg | baseline: CSF over plasma | Kp,uu | ~0.6 |
| O=C(Nc1cnccc1-c1ccc([18F])nc1)c1ccnc(NC(=O)C2CC2)c1 | – | – | FVB/NJ mice (both sexes), urine | intravenous, dose not given, 120 min, together with: tariquidar 15 mg/kg i.v. pre-dose | – | SUV | 18.9 |
| C[N+](C)(CCOCCOCCOCCNC(=S)Nc1ccc(C[C@H]2CN(CC(=O)[O-])CCN(CC(=O)[O-])CCN2CC(=O)[O-])cc1)C[c-]1cccc1.[64Cu+2].[Fe+2].c1cc[cH-]c1 | – | OLINDA, extrapolated from mouse biodistribution, measured: total body | adult male human phantom | – | – | absorbed dose | 1.26 µSv/MBq |
| CCC1=[N+]2N=C(/C=C/C=C/c3ccc(C(F)(F)F)cc3)C(=O)O[B-]2(c2ccccc2)Oc2cc(N(CC)CC)ccc21 (centres unmarked) | – | UV/vis decay | aqueous buffer | – | – | hydrolysis activation energy | 24.9 kcal/mol |
| CCOC(=O)C(CC)(CCCSCCOCCOCCNC(=O)OC(C)(C)C)NC(=O)c1ccc(C2CC2)c(Cc2ccc(F)cc2)n1 (racemic) | – | – | aqueous buffer with DMSO | – | – | kinetic solubility | < 0.1 µg/mL |
| COC1CN([C@H]2CC[C@H]([C@@]3(C)Oc4c(Cl)cc(C(=O)NCc5c(SC)cc(C)[nH]c5=O)c(C)c4O3)CC2)C1 | – | RNA-seq, measured: ERRFI1 mouse homolog | mouse, HT-1376 xenograft, whole blood | dose not given | baseline: vehicle | log2 fold change | 0.171 |
| CN(C)C(=O)c1ccnc(N2Cc3cn(Cc4cccc(C(F)(F)F)c4)nc3C2)n1 | – | metabolic stability | human, liver microsomes | – | – | half-life | 2.25 h |
| Cc1nn(-c2nc3c(F)cc(F)cc3s2)c(O)c1C(c1ccc(C(F)(F)F)cc1)c1c(C)nn(-c2nc3c(F)cc(F)cc3s2)c1O | – | – | ICR mouse, plasma | intraperitoneal, 10 mg/kg | – | AUMC(0-t) | 203000 h²·ng/mL and 204000 h²·ng/mL and 170000 h²·ng/mL |
| Cc1noc(C)c1Cn1cc(N2C(=O)CN(Cc3cccc(O[C@@H]4O[C@H](C(=O)O)[C@@H](O)[C@H](O)[C@H]4O)c3)C2=O)cn1 | – | – | Sprague-Dawley rat, male | oral, 30 mg/kg of parent drug, 0.25 h | – | plasma concentration | 5040 ng/mL |
| C/C(N)=N/C(=N\S(=O)(=O)c1ccc(C(F)(F)F)cc1)N1C[C@H](c2ccccc2)C(c2ccc(Cl)cc2)=N1 | – | – | male C57BL/6 mouse, brain | intravenous, 10 mg/kg | – | Cmax | 83.6 ng/mL |

A few entries again:
| Compound | tested on | assay | test system | conditions | how to read | endpoint | result |
| --- | --- | --- | --- | --- | --- | --- | --- |
| Cc1ccc(OCC(=O)N(Cc2cccs2)c2ccn[nH]2)cc1 | – | ex vivo plasma stability | human plasma | 750 ng/mL, 24 h, 37 °C | – | remaining compound | 90% |
| CN1CCC[C@]1(C)/C=C/S(=O)(=O)NC(=O)Nc1c2c(cc3c1CCC3)CC=C2 | – | – | human, plasma | oral, 100 mg twice daily of parent drug, day 14, metabolite of dosed drug | – | AUC(0-24) | 932 µg·h/mL |
| Cc1cccc(-c2ccc3nc(NC(=O)C4CCCCC4)nn3c2)c1 | – | – | human liver microsomes | 40 min | – | metabolic turnover | 100% |
